# Measured values of several laboratories.
# Numbered parts are unrelated; each lists some results of a single study. Changes are numbered by the printed parent chain.

# Series 1
# Target: Histone acetyltransferase KAT6A, winged helix 2, GST fusion (KAT6A, Homo sapiens, UniProt Q92794, residues 85-181)
# Method: protein binding microarray
# Form: double-stranded DNA, one strand shown
# Sample: in vitro
# Concentration: not given
# Setting: 8-mer, flanks averaged, mean of 2 arrays, mostly near background
# Relative to: not given
# Reading: higher = stronger binding
# Construct (chain): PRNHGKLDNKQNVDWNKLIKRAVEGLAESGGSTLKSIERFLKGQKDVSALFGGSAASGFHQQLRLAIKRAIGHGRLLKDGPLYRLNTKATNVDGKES
Oligonucleotide,E-score
ACCTATCC,-0.166
GCTGTTAC,-0.153
GTTGAGAA,-0.0587
GAGAAAGC,0.132
GATCATAC,-0.105
GACCGGGA,-0.0313
CAAATGCG,0.0507
ACCTCTTA,-0.0498
AATGAGCA,0.0773
GACCTCTC,0.0316
CCTGCGTA,0.133
ACTTAATG,0.0354
CGCTAATC,-0.0446
AGCCTAAC,-0.108
AGTATTCG,0.0432
ACAATTAT,-0.0171
ATACCCTG,0.00984
AACACACG,-0.135
AATCATTC,0.0299
GGGGAACC,0.0171
CCGGCGTC,0.13
CATATATC,0.0234
GTCGCAAC,-0.0333
CATAACCC,-0.221
CAGGAATG,-0.0439

# Series 2
# Target: CCNF, cyclin fold, Cln2 fusion (human)
# Method: yeast growth competition, sequencing
# Sample: yeast
# Setting: strong parent motif
# Relative to: not given
# Reading: higher = stronger binding
# Starting sequence: CUX1 docking peptide (human); SRIRRELFIEEIQ
Substitution,normalised enrichment score
SRIRKELLIEEIQ [R5K F8L],0.888
SRIRRELAIEEIQ [F8A],0.915
SAIRRELFIEEIQ [R2A],4.36
SRIRRALFIEEIQ [E6A],7.33
ARIRRELFIEEIQ [S1A],5.2
SRIRRELFIEEIA [Q13A],6.07
SRIRRELFIAEIQ [E10A],5.69

# Series 3
# Target: Sal-like protein 4, full length isoform A (SALL4, Homo sapiens, UniProt Q9UJQ4, residues 1-1053)
# Chain of UniProt Q9UJQ4 (whole entry, looked up): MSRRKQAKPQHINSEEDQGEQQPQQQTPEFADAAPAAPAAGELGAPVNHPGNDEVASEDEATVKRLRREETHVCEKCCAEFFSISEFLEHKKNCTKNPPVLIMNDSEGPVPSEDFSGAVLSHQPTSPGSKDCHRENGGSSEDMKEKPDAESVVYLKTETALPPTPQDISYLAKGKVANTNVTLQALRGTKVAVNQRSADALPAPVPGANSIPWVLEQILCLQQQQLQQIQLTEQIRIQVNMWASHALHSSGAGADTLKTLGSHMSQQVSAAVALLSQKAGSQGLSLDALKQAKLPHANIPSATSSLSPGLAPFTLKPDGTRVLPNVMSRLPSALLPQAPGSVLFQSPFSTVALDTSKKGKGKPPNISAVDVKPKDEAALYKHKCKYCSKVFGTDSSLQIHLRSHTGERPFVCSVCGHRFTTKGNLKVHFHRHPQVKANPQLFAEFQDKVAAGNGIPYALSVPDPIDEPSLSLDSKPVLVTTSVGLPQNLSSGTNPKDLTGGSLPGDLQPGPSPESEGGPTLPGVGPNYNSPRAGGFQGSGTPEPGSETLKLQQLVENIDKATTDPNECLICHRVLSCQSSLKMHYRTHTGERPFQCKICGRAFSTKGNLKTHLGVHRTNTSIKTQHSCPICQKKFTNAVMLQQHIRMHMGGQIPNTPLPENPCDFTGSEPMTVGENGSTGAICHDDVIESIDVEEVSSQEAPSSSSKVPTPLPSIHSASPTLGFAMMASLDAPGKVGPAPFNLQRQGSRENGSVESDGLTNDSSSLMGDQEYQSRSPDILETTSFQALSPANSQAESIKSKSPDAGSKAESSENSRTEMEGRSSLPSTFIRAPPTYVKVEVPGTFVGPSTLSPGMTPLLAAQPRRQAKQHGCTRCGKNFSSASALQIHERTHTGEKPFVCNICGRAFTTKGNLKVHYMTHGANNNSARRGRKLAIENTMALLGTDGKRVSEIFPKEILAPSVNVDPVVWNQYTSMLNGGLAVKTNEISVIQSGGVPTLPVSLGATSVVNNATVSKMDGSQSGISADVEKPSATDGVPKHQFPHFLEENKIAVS
# Method: universal PBM
# Form: double-stranded DNA, one strand shown
# Sample: in vitro
# Concentration: 600 nM
# Setting: 8-mer, flanks averaged, mean of replicates
# Reading: higher = stronger binding
Oligonucleotide,E-score
CGGGGTAG,-0.281
GGGCGATA,-0.147
ACCAAAAG,0.197
CCGAGGTA,-0.22
ATGAAAAG,0.103
CAGTAGAC,0.0558
AACTGGCG,-0.234
AACGATAA,0.194
GATAGGAA,0.0702
AGTTAGGA,0.104
ACCCACCC,-0.241
GCCCTTCC,-0.301
ACTTGAGC,-0.103
ATTATGGC,0.231
CGGAATAC,0.101
ACTTGGAT,0.154
ATGAGCCG,-0.11
TTAAGTAA,0.21
ATGTCGGA,-0.0527
AACCGCGG,-0.271
AGCACTTG,-0.238
ACGTCATA,0.317
CGCCTATC,-0.0799
GAGTACGC,-0.239
AATCCATG,0.124

# Series 4
# Target: Ras GTPase-activating protein-binding protein 1, full length (G3BP1, Homo sapiens, UniProt Q13283)
# Chain of UniProt Q13283 (whole entry, looked up): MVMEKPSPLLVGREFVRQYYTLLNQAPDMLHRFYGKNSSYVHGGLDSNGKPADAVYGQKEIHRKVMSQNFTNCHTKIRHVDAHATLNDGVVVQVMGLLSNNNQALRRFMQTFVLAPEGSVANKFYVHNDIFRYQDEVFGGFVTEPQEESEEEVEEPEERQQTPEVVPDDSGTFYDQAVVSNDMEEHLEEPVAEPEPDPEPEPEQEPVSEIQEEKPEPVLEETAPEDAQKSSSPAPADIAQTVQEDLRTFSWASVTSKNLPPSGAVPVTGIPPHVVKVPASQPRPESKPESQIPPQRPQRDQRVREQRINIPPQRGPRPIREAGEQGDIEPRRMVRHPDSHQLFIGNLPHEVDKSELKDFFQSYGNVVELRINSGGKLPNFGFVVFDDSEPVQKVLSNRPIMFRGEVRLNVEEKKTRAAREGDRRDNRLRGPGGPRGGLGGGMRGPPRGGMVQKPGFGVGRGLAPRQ
# Method: RNA Bind-n-Seq
# Form: RNA
# Sample: in vitro
# Concentration: 200 nM
# Setting: whole 134-nt RNA, ends assumed
# With: 150 mM LiCl
# Relative to: input library
# Reading: higher = stronger binding
# All molecules: 7-deaza-guanosine replaces G
# Shared flanks, not repeated: GGGAGUUCUACAGUCCGACGAUC … UGGAAUUCUCGGGUGUCAAGG
Oligonucleotide,log2 enrichment
CGCUAAAGAGGAGCACGGUGGACUGAUGUGAGCUUCUCUUCCUGCCCCUUCCUCCCUGAUGUCCACUCCCUUCACCUUCCUCACGCCCGU,0.863
GUCCUGUGCUACACAUCGUAUGUACCGAAUCGGGCCCCCGGGGCCCCCGGCCCCCGGGGAAAGUAUUAUGUUACGCCGUUCGGAUCUGCA,-1.83
CUCAAGUCCUGUGCUACACAUCGUAUGUACCGAAUCGGGGUGGGGUGGGGUGGAAAGUAUUAUGUUACGCCGUUCGGAUCUGCACUUCCA,-1.03
UCCUCAAGUCCUGUGCUACACAUCGUAUGUACCGAAUCGGCGGGGCGGGCGGAAAGUAUUAUGUUACGCCGUUCGGAUCUGCACUUCCAG,0.784
UCCUGUGCUACACAUCGUAUGUACCGAAUCGGGGUUUUUGGGGAAAAAAAGGGGUGGGGAAAGUAUUAUGUUACGCCGUUCGGAUCUGCA,-0.368
ACCAUGCAGGUGGGCAUCUUUGGGAAGUGGGGCAAGCGGGGGAUAGGGAGGGGGGUAACACUUUGGGAACAGGUGGUCCCAGGUCGUUUC,0.309
UGGCCCUGGUGGCAUGCGGGGAGGAAUAGGUGGCCUCAUGGAUCGUGGUGGUCCCGGUGGAAUGUUCAGAGGUGGCCGUGGUGGAGACAG,0.091
UCCUCAAGUCCUGUGCUACACAUCGUAUGUACCGAAUCGGGCGGCGGCGGGGAAAGUAUUAUGUUACGCCGUUCGGAUCUGCACUUCCAG,1.11

# Repeated from above (series 1):
Oligonucleotide,E-score
AGTATTCG,0.0432
ACAATTAT,-0.0171
ATACCCTG,0.00984
AACACACG,-0.135
AATCATTC,0.0299
GGGGAACC,0.0171
CCGGCGTC,0.13
CATATATC,0.0234
GTCGCAAC,-0.0333
CATAACCC,-0.221
